Assay results gathered from unrelated publications.
Every numbered part comes from another study and shows a few of its results, in no order.

Sample 1 — method: RNA Bind-n-Seq; form: RNA; matrix: in vitro; concentration: not given; relative to: input RNA pool; direction: higher = stronger binding
Target: RING finger protein unkempt homolog, zinc fingers 1-6, GST-SBP tag (UNK, Homo sapiens, UniProt Q9C0B0, residues 30-357)
Setting: RNA with constant flanks, human and mouse sites, ends assumed
Constant ends, left off below: GGGAGUUCUACAGUCCGACGAUC … CAACAGAGGAUUGAGCAUCA
Residues (chain): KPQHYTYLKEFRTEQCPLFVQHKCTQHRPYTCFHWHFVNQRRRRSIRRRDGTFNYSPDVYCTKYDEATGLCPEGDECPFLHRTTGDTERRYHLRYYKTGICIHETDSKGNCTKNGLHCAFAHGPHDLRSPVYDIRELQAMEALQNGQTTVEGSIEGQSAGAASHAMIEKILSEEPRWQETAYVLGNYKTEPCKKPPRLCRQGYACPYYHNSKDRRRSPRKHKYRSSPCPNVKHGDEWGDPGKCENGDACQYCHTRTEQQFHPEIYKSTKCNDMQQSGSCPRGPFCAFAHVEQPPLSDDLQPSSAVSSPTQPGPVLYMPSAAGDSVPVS
Oligonucleotide	bound/input enrichment
AAGUCCAGAGGAAAAGAACCCAACUGAGUGCAUGCCAGUUCAGAGUACAGACUUCUCACCUUGACGUUUUUACACAUGAACUUCCAAGAAUUUGGGAUCCAAGUUGUUUAUAUAAUAAUG	0.121 ratio
UUGGAUGGGGCUUCUUCUCUUUAGGUUUGUGUUUGCCCUCCCGCCUGCUUCUGGUUUGUAACUAGCACAGUCCCGCCACUCAGCACACUCAGUAUUACCGUGGAGCUGUGGGGUUCUUGC	1.51 ratio
UUUCCAGUGGAAUUCCUUAUCCAGGUGACUAAGUUAUCAAAAAUUCUCAUGAUUAAAAAAGAGCAUAUAAAGAAAUUAAGGGAGAUGAACACAGAAGCAGAAAAGCUGAAAUCCUAUUCC	0.255 ratio
CAAGAUCACCUGUCUCCUGAAGCAGAAGAAAUCACUAUGAUUAGUAUUCAGCUUGCUGCUAGGUUCCUUUUUACUACAGGAUUUCACACAAAGAAAAUAGUCCGAGGAUCUGCCAGUGAU	0.348 ratio
GAAAAACCAUCUCCUAUCCAGGAGGAGAGCAUUCCCAUUGCUUUAUCUGGUAGGGAUAUCUUAGCUAGAGCAAAAAAUGGAACAGGCAAAAGCGGUGCCUACCUCAUCCCCUUACUUGAA	0.828 ratio
AUCUUUAUCUCACAAGAUGAAAUACAGUCAUUUAUGGCUAAUAACCAGUCUUUCUACAGCAAUAGAGAACAAUACCGACAGCAUCUGAAGGAGAAAUUUAAUAAAUACUGCCGGUUAAAU	0.195 ratio
UUUUUUUUAAUUUUUUUUAAAAUUUCAUAUCUUUUCAUUCCACUGUGUAAAGUGCUAGGAAAUUUCCAAUUUGAAAUUUUGCUUUUUCUGGCAUUGGCAAAAAACCAGUAGAAGUGAAUU	5.42 ratio
CGGGAUGACCAGACUCCCGGACUCCUCAGGCAGUGCCCUUCCUCCCCACUCUUCCUCCCCACAGACAGGCCUCUGCUCCUGCGCCUGCCUGCAUGCUCUCUCUUGUCGUUGGAGCCUGGA	1.04 ratio
UUUCGCCUGGCGCUGGGCAGCUUCGUGGAAGAGUACAACAACAAGGUUCAGCUUGUUGGUUUAGAUGAGGAGAGUUCAGAGUUUAUUUGCCGAAACACCUUUGACCACCCGUACCCUACC	0.158 ratio
AGGCCCCAGGCCCAACCAAAAGAGGCCUGGAGCCUGUCGGACUCUUGCCAACCUCCUGUGUCUCAGAGAACAGUGCAUACCACGUUACCAUCUCCUUCAGAUUCGAGCCACUGUAAUGCG	0.0695 ratio
ACAGUUAUAUUGUUGAGUUUCAUUUUCAUAUAUUCUUGUAGUGUCUGCUUGCCUGUGACUUCUGGUAAAAUAAAAUAAGCCUUUGAAAAUAUUUUAGCAUGGUAUUUAACAUUUUCUAAA	1.77 ratio

Sample 2 — method: RNA Bind-n-Seq; form: RNA; matrix: in vitro; concentration: 1 µM; setting: whole 134-nt RNA, ends assumed; added: 150 mM KCl; relative to: input library; direction: higher = stronger binding
Target: Ras GTPase-activating protein-binding protein 1, C-terminal RGG region (G3BP1, Homo sapiens, UniProt Q13283)
Chain of UniProt Q13283 (whole entry, looked up): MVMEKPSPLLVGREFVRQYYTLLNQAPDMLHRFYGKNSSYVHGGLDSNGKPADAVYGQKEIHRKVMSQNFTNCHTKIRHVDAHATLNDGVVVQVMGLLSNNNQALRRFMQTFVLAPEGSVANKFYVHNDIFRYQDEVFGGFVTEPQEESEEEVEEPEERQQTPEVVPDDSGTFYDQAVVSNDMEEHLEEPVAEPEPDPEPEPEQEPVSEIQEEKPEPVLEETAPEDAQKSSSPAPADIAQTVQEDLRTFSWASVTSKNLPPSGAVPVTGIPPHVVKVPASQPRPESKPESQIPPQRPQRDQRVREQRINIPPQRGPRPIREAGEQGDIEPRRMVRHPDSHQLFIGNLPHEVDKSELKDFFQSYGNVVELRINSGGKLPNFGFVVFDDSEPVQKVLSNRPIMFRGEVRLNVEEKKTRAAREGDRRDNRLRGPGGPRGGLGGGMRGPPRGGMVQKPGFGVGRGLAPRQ
Constant ends, left off below: GGGAGUUCUACAGUCCGACGAUC … UGGAAUUCUCGGGUGUCAAGG
Oligonucleotide	log2 enrichment
UGCCAAAGUAUGGCAAGAAAUUGCUCCUGGAAAUACUGAUGCCACCCCAGUAACUCAUGGAACUGAAAGCUCUUGGCAUGAAAUAGCAGC	-0.142
UGGCCCUGGUGGCAUGCGGGGAGGAAGAGGUGGCCUCAUGGAUCGUGGUGGUCCCGGUGGAAUGUUCAGACGUGGCCGUGGUGGAGACAG	3.15
GUCCUGUGCUACACAUCGUAUGUACCGAAUCAAACCCCCAAACCCCCAAAUUUUUAAAAAAGUAUUAUGUUACGCCGUUCGGAUCUGCAC	-0.847
UCAAGUCCUGUGCUACACAUCGUAUGUACCGAAUCGGUUGGGUUGGGGUUGGGGAAAGUAUUAUGUUACGCCGUUCGGAUCUGCACUUCC	0.549
UCAAGUCCUGUGCUACACAUCGUAUGUACCGAAUCGGAAAAAAAGGUUUGGAGGAAAGUAUUAUGUUACGCCGUUCGGAUCUGCACUUCC	-1.44
ACCAUGCAGGUGGGCAUCUUUGGGAAGUGGGGCAAGGGGGGGAUAGGGAGGUGGGUAACACUUUGGGAACAGGUGGUCCCAGGUCGUUUC	2.07
UCCUGUGCUACACAUCGUAUGUACCGAAUCGGGGAAAAAGGGGUUUUUGGGGUUUGGGGAAAGUAUUAUGUUACGCCGUUCGGAUCUGCA	1.67
UCCUGUGCUACACAUCGUAUGUACCGAAUCGGGGAAAAAAGGGAAAAAAGGGAAAAAAGGAAAGUAUUAUGUUACGCCGUUCGGAUCUGC	-1.08
AAGUCCUGUGCUACACAUCGUAUGUACCGAAUCGGGGCCCGGGGCCCGGGCCCGGGAAAGUAUUAUGUUACGCCGUUCGGAUCUGCACUU	-2.28
UUCUGGUCUGCUCACCAGAGGUUCUUCAAAUACUUAUGCAUAGCAUCCAAAGUUAAAAGGGUUGUGCAACUAGCUCGAGAGGAAAUCAAG	-1.77
CAAGUCCUGUGCUACACAUCGUAUGUACCGAAUCAAAUUUAAAUUUAAAUUUAAAAAAGUAUUAUGUUACGCCGUUCGGAUCUGCACUUC	-1.97
CAAGUCCUGUGCUACACAUCGUAUGUACCGAAUCGGGGAAAGGAAAGGGAAAGGGGAAAGUAUUAUGUUACGCCGUUCGGAUCUGCACUU	-0.534
CACAGACAACACGCACCCACACAGACACAGAGGGAAGGGGUUUGGAUGGGGACAGGGUGCACAGCAGGGCGGGGUAGGACCCCAGCCCCU	-0.321
UCAAGUCCUGUGCUACACAUCGUAUGUACCGAAUCGGGUUUGGUUUGGUUUGGGAAAGUAUUAUGUUACGCCGUUCGGAUCUGCACUUCC	-1.21

Sample 3 — method: RNA Bind-n-Seq; form: RNA; matrix: in vitro; concentration: 365 nM; relative to: no-protein control; direction: higher = stronger binding
Target: RNA binding protein fox-1 homolog 2, RRM domain, GST-SBP tag (RBFOX2, Homo sapiens, UniProt O43251-10, residues 100-194)
Setting: natural RNA segment, single round, ends assumed
Constant ends, left off below: GGGAGUUCUACAGUCCGACGAUC … UGGAAUUCUCGGGUGCCAA
Target sequence (chain): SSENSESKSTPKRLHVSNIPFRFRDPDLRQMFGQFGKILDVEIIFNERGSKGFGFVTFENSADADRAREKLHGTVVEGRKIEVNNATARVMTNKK
Oligonucleotide	RBNS enrichment (R)
GAUGUCCAGAUGUUGUAAAAAAACAAAAACAAAAAACCCAACAGCUGCAGUUCAAUACAACUGCUCUUUUCACACGACUCCCUAAACUCCUUGUAACCUUCUGUAACUAU	0.57
UGCAACACAUUUGUCACCAGGCUUUGAAGGUGACAGCCUGACAAUGUGUUGGAGACACUUCUGAAGGGCAAGUGAACAGACAUACUGUGAAGUGGCUCAACAGGAGGAGC	3.55
CAGGGAAGUCAGACGGUGGAAGAUCUGCUGCAACCAUUAUCUCUGUUCUUUGUGUAUCAUGCAUUUAAAAUGAGAUGGAAAAGCAUUAGCAUACUGUGUAAAUAUGGACC	1.17
CCUCUCAGAGCCUGAAACUUACCUCUUAGCUUUGGCUACAGGCAUGGCCUAGUACCUGAUGGAGCCUGUAUAGCUCAGCUAAUCAAAUGGAGGCUCAGGUCCAUCAGAAU	0.375
GAAUCCAUACUAAAGGGGGACUUGAGGGUGUGUACCCUACAGGCCAGCCUUCCACAUCGUGUCAGUGUUGGCUGCCCAGGUUGGAAGCGAAGACUUGAUUGAUAGCAUGG	3.59
UGUUAUGGUUGGAGGUCACCACAACAUGAGCAACUGCAUUAAAGGAUCGCAGCAUCACGAAGGUGGAGAAGCCCUGCUCUAUGGGAAAUGUCCCUGGUAUCUCUGUGGUC	0.574
AUUUUUAUUUUUUUUAUUAUUAAAUGAUGUGGUCUAUGGAAAAAAAAAUAAAAAUCUGACUUAGUUUAAACUGUGUGAGUGGCUUUCUUUGGGCAGGUUAAGAAGCCACU	1.2
CCGUGAUGCUGUUUUGUAACACAAACUGAUCUCCUUUAGUUCAGUUUGUCUCCUGUAAAUAGCGGCUCCUAUGCCAUCCUCCCUGCUUUAUUAGUUAAUUUAAAUGAACA	0.309
UGAAUAAUGUUUACAUUCGUCCCCCGGGGAAAUGUAUGCUCAGCCACCAUUCAAGAGAUGACUGAGAAGGAGAUGGUAAGUUCAAGAAGACUGAUUGCACCUGGGACCCA	1.93
UUCUGAAUCAGUGGGGAAAUAUCAAUAUUUGAUCAAAUUAACACUACCUCCUUCCCAGUGUUGGUGUUCACUCACUAUAUGUCUUUAAGAAAAUUAAAACUAUGGAAAAU	0.488
GAGCAGUCCUUCAAUCUCAGAACCCCAGGAGGCCCCACAGGAGUUGCCCUCCUCCUUCAGCCUGCCCCUGCCUUGGGCUGCCCUUCCCCUGGUGUACUCCUGAGGUGUCU	0.725
CUACAUGGCGCUGAGCCCCAACUCCUGUCCUGUGGUGUGUGUCACACGUGUUUUUACUGACUGAAGCCAACCAUCCUGAACUGUCAUGCAGAGAAUUCUUGCAGGAAUCA	0.541

Sample 4 — method: protein-binding microarray; form: double-stranded DNA, one strand shown; matrix: in vitro; concentration: 0.8 µM; setting: whole 60-bp probe, no competitor; direction: higher = stronger binding; constant ends, left off below: … GTCTTGATTCGCTTGACGCTGCTG
Target: Centromere-binding protein 1, full length, N-terminal tag (CBF1, Saccharomyces cerevisiae, UniProt P17106, residues 1-351)
Chain of UniProt P17106 (whole entry, looked up): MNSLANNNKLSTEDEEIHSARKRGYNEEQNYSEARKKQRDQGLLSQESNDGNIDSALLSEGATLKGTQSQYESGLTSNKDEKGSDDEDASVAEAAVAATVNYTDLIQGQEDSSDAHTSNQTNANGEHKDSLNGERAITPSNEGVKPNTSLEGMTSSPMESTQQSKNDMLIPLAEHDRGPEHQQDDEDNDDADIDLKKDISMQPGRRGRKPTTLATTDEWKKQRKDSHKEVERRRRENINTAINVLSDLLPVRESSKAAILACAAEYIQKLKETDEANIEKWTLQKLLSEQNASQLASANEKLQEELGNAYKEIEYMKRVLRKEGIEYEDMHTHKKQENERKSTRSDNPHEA
Oligonucleotide	fluorescence intensity [a.u.]
CCTAACTACTATAACGTGCGTACATAGCTTCGTACA	617
CTATCGATCATACAATACATCAGGACCTGCGTATTC	556
GAAGAGGATTGCCTACGCGTGGGCTTGATCCACTAG	494
CTAATTAGCTATAGTCACGTTTCGCGTTGAAACTTC	2270
CTAGTGACTATTGAGCACGTGAGTATACGTGATTTC	6620
CCTAACTACTATACTTTTCACGTATAGCTTCGTACA	546
CTATAAATTGAACGTCACGGTAATACTACATAATTC	601
CTAAAAAAAAACAAATACATCAGAGCAAGACACTTC	539
CTAATTTGATCATTGTACGTGATGAATCCATGTTTC	628
CTAGAACGAGTTTTGCCCGTGCTCCCCATGACTTTC	554
GAACTATTTTCGTTAAAGGTGATTACAGGCGGTTAG	580
GAAGATATCATACATCACCCCATTACGTTATTTTAG	532
GAAAACCATAAAGGACATCAGAAGAGTTTTACATAG	515
CTACATGTCGAAACGCACGCTGTTGCATGAAAATTC	549
CTAGAAAACGTTTCTCAGGAGACTCTTTTAAGCTTC	492
GAAAGTGATCTTGGTCACATGATATACGCGTGATAG	8710
GAAAATCATTATCGTGGTGCACCAGCAGTATTATAG	525
TGTACGAAGCTATTTCTCGTGGATATAGTAGTTAGG	564
GAATCTTGTCGTAGTAGCGTGATTCTATTCAGTTAG	795

A few entries again (sample 3):
Oligonucleotide	RBNS enrichment (R)
CCGUGAUGCUGUUUUGUAACACAAACUGAUCUCCUUUAGUUCAGUUUGUCUCCUGUAAAUAGCGGCUCCUAUGCCAUCCUCCCUGCUUUAUUAGUUAAUUUAAAUGAACA	0.309
UGCAACACAUUUGUCACCAGGCUUUGAAGGUGACAGCCUGACAAUGUGUUGGAGACACUUCUGAAGGGCAAGUGAACAGACAUACUGUGAAGUGGCUCAACAGGAGGAGC	3.55
GAAUCCAUACUAAAGGGGGACUUGAGGGUGUGUACCCUACAGGCCAGCCUUCCACAUCGUGUCAGUGUUGGCUGCCCAGGUUGGAAGCGAAGACUUGAUUGAUAGCAUGG	3.59
AUUUUUAUUUUUUUUAUUAUUAAAUGAUGUGGUCUAUGGAAAAAAAAAUAAAAAUCUGACUUAGUUUAAACUGUGUGAGUGGCUUUCUUUGGGCAGGUUAAGAAGCCACU	1.2
CCUCUCAGAGCCUGAAACUUACCUCUUAGCUUUGGCUACAGGCAUGGCCUAGUACCUGAUGGAGCCUGUAUAGCUCAGCUAAUCAAAUGGAGGCUCAGGUCCAUCAGAAU	0.375
UGUUAUGGUUGGAGGUCACCACAACAUGAGCAACUGCAUUAAAGGAUCGCAGCAUCACGAAGGUGGAGAAGCCCUGCUCUAUGGGAAAUGUCCCUGGUAUCUCUGUGGUC	0.574
CAGGGAAGUCAGACGGUGGAAGAUCUGCUGCAACCAUUAUCUCUGUUCUUUGUGUAUCAUGCAUUUAAAAUGAGAUGGAAAAGCAUUAGCAUACUGUGUAAAUAUGGACC	1.17
GAGCAGUCCUUCAAUCUCAGAACCCCAGGAGGCCCCACAGGAGUUGCCCUCCUCCUUCAGCCUGCCCCUGCCUUGGGCUGCCCUUCCCCUGGUGUACUCCUGAGGUGUCU	0.725
